Published values gathered from unrelated publications.
Protocols differ between the studies behind these lines. Values joined by “and” are separate records of one study, mostly repeats; a detail may differ. ± marks the error that the study gave. ≈ marks a conversion by molar mass, not a printed value.

SMILES | tested on | assay | test system | setting | scale | endpoint | value
COc1cc(Nc2ncnc3ccc(-c4ccc(S(=O)(=O)N5CCOCC5)cc4)cc23)ccc1OCc1cccc(F)c1 | Plasmodium falciparum | parasite growth, SYBR Green fluorescence | C235 (TM91C235), drug-resistant | – | – | EC50 | 600 nM
CCOC(=O)C1(Cc2ccccc2)Oc2ccccc2N(Cc2ccccc2)C1=O (stereo not shown) | Arabidopsis thaliana | – | Col-0 | 200 mg/mL | – | root growth inhibition | inhibited
C[C@H]1[C@H](OC(=O)CCC(=O)OCc2cn(-c3cc4ccc(O)cc4oc3=O)nn2)O[C@@H]2O[C@@]3(C)CC[C@H]4[C@H](C)CC[C@@H]1[C@@]24OO3 | Plasmodium berghei | – | NK65/GFP, mouse | subcutaneous, 22 µmol/kg daily for four days | – | cure rate | 0%
CC[C@H](C)CCCCC(=O)N[C@@H](CCN)C(=O)N[C@H](C(=O)N[C@@H](CCN)C(=O)N[C@H]1CCNC(=O)[C@H]([C@@H](C)O)NC(=O)[C@H](CCN)NC(=O)[C@H](CCN)NC(=O)[C@H](CC(C)C)NC(=O)[C@@H](CC(C)C)NC(=O)[C@H](CCN)NC1=O)[C@@H](C)O | Escherichia coli | daily serial passaging | ATCC 8739 | highest sub-MIC, 16 days | baseline: initial MIC | MIC fold change | 1.37
Cc1ccc(NCCN(C)C)c2c(=O)c3cc(O)ccc3sc12 | HIV-1 subtype C | viral replication | – | 96 h | – | IC50 | 600 nM
Cc1cc(C(=O)Nc2nc3cccc(C)c3n2[C@H]2CCCCN(C(=O)/C=C/CN(C)C)C2)ccn1 | Trypanosoma brucei | propidium iodide flow cytometry, item: SubG0 phase | bloodstream CLK1 over-expression induced | concentration not given | – | cell cycle distribution | 1.5% and 3% and 1%
O=S(=O)(c1ccc(-c2ccc3ncnc(Nc4ccc(O)c(Cl)c4)c3c2)cc1)N1CCOCC1 | Plasmodium falciparum | parasite growth, SYBR Green | D6 | blood stage | – | EC50 | 12000 nM
C#CCN1C(=O)C(CC#C)(C(=O)OCC)Oc2ccccc21 (stereo not shown) | Arabidopsis thaliana | – | Col-0, seed germination, dark | 50 µg/mL, 7 days, 22 °C | – | stem length inhibition | 100%
C[C@H](NC(=O)Cc1cc(F)cc(F)c1)C(=O)N[C@@H]1C(=O)N(C)c2ccccc2-c2ccccc21 | dengue virus 2 | viral replication, luciferase reporter virus | Huh-7.5.1 | – | – | EC50 | 31 nM
O=C(c1ccc(-c2ccc3ncnc(Nc4ccc(OCc5cccc(F)c5)c(Cl)c4)c3c2)cc1)N1CCCCC1 | Plasmodium falciparum | parasite growth, SYBR Green | D6 | blood stage | – | EC50 | 250 nM
CC(O)CN.O=C(O)C(Cl)Cl | Xanthium sibiricum | – | – | 15 mg/mL, 21 days, post-emergence, greenhouse | – | herbicidal inhibition | 53%
CCOC(=O)C1(Cc2ccc(F)cc2)Oc2cc(F)ccc2N(Cc2ccc(F)cc2)C1=O (stereo not shown) | Arabidopsis thaliana | stem length, petri dish germination | Col-0, 1/2 MS medium | 50 µg/mL, 7 days, 22 °C, dark | – | inhibition | 22.9%
CCCCCCCC(=O)NCCCC[C@H](NC(=O)CCCCCCC)C(=O)N[C@@H](CCCCNC(=O)CCCCCCC)C(=O)NCC(=O)NCC(=O)NCC(=O)N[C@@H](CS)C(=O)N[C@@H](CCCNC(=N)N)C(=O)N[C@@H](CCCCN)C(=O)N1CCC[C@H]1C(=O)N[C@@H](CS)C(=O)N[C@@H](CCCNC(=N)N)C(=O)N[C@@H](CCCCN)C(=O)N1CCC[C@H]1C(=O)N[C@@H](CS)C(=O)N[C@@H](CCCNC(=N)N)C(=O)N[C@@H](CCCCN)C(=O)N1CCC[C@H]1C(N)=O | Candida albicans | broth microdilution | SP 3902, RPMI-1640 | 48 h, 30 °C | – | MIC | 16 µM (≈ 36.4 µg/mL)
COc1ccc(Nc2ncnc3ccc(-c4ccc(S(=O)(=O)N5CCN(C)CC5)cc4)cc23)cc1Cl | Plasmodium falciparum | parasite growth, SYBR Green fluorescence | C235 (TM91C235), drug-resistant | – | – | EC50 | 58 nM
CCCCCCCC(=O)NCCCC[C@H](NC(=O)CCCCCCC)C(=O)N[C@@H](CCCCNC(=O)CCCCCCC)C(=O)NCC(=O)NCC(=O)NCC(=O)N[C@@H](CS)C(=O)N[C@@H](CCCNC(=N)N)C(=O)N[C@@H](CCCCN)C(=O)N1CCC[C@H]1C(=O)N[C@@H](CS)C(=O)N[C@@H](CCCNC(=N)N)C(=O)N[C@@H](CCCCN)C(=O)N1CCC[C@H]1C(N)=O | Candida albicans | broth microdilution | fluconazole-resistant 56214, RPMI-1640 | 48 h, 30 °C | – | MIC | 8 µM (≈ 14.3 µg/mL)
Fc1cccc(COc2ccc(Nc3ncnc4ccc(-c5cccc(CN6CCCCC6)c5)cc34)cc2Cl)c1 | Plasmodium falciparum | parasite growth, SYBR Green fluorescence | W2, drug-resistant | – | – | EC50 | 73 nM
CCOC(=O)C1(Cc2cccc(C)c2)Oc2cc(F)ccc2N(Cc2cccc(C)c2)C1=O (stereo not shown) | Arabidopsis thaliana | stem length, petri dish germination | Col-0, 1/2 MS medium | 50 µg/mL, 7 days, 22 °C, dark | – | inhibition | 44.2%
O=C1NC2(CC2)COc2ncc(F)cc2[C@H]2COCCN2c2ccn3ncc1c3n2 | – | – | Sprague-Dawley rat, male, serum | oral, 20 mg/kg/day, 4 weeks daily, end of recovery period | – | albumin | 37.2 ± 1.7 g/L
CC(=O)c1c(O)c(C)c(O)c2c1OC1=CC(=O)C(=C(C)NCCCCOC3OC4OC5(C)CCC6C(C)CCC(C3C)C46OO5)C(=O)C12C (mixture of isomers) | Plasmodium berghei | – | ANKA GFP, NMRI mouse | oral, 4 x 3 mg/kg | – | mean survival time | 4 days
CN1CCN(S(=O)(=O)c2ccc(-c3ccc4ncnc(Nc5ccc(Cl)cc5)c4c3)cc2)CC1 | Plasmodium falciparum | parasite growth, SYBR Green fluorescence | W2, drug-resistant | – | – | EC50 | 390 nM
CCOC(=O)C1(Cc2c(F)cccc2F)Oc2cc(F)ccc2N(Cc2c(F)cccc2F)C1=O (stereo not shown) | Arabidopsis thaliana | root length, petri dish germination | Col-0, 1/2 MS medium | 50 µg/mL, 7 days, 22 °C, dark | – | inhibition | 8.94%
CCCCCC[C@H]1C(=O)O[C@H](C)[C@H](NC(=O)c2cccc(NC=O)c2O)C(=O)O[C@@H](C)[C@@H]1OC(=O)CC(C)C | Bovine alphaherpesvirus 1 | viral replication | bovine epithelial cells | – | – | IC50 | 77 nM
CCOC(=O)C1(Cc2ccc(C#N)cc2)Oc2cc(F)ccc2N(Cc2ccc(C#N)cc2)C1=O (stereo not shown) | Arabidopsis thaliana | stem length, petri dish germination | Col-0, 1/2 MS medium | 50 µg/mL, 7 days, 22 °C, dark | – | inhibition | 28.6%
O=C(c1cccc(-c2ccc3ncnc(Nc4ccc(OCc5cccc(F)c5)c(Cl)c4)c3c2)c1)N1CCCCC1 | Plasmodium falciparum | parasite growth, SYBR Green | D6 | blood stage | – | EC50 | 510 nM
CCOC(=O)C1(CC#N)Oc2cc(F)ccc2N(CC#N)C1=O (stereo not shown) | Arabidopsis thaliana | root length, petri dish germination | Col-0, 1/2 MS medium | 200 µg/mL, 7 days, 22 °C, dark | – | inhibition | 100%
CC(C)[C@H]1NC(=O)[C@H](Cc2ccccc2)NC(=O)[C@@H](C(C)C)NC(=O)[C@@H](C)NC(=O)[C@H](C)NC(=O)[C@@H](Cc2c(-c3ccc(-c4ccc(-c5ccccc5)cc4)cc3)[nH]c3ccccc23)NC(=O)[C@@H](CO)NC1=O | Candida albicans | broth dilution | – | – | – | MIC90 | > 50 µM
O=C(c1cccc(-c2ccc3ncnc(Nc4ccc(OCc5cccc(F)c5)c(Cl)c4)c3c2)c1)N1CCCC1 | Plasmodium falciparum | parasite growth, SYBR Green fluorescence | C235 (TM91C235), drug-resistant | – | – | EC50 | 90 nM
CCOC(=O)C1(Cc2ccccc2F)Oc2cc(F)ccc2N(Cc2ccccc2F)C1=O (stereo not shown) | Arabidopsis thaliana | root length, petri dish germination | Col-0, 1/2 MS medium | 200 µg/mL, 7 days, 22 °C, dark | – | inhibition | 74.8%

Repeated from above:
SMILES | tested on | assay | test system | setting | scale | endpoint | value
O=S(=O)(c1ccc(-c2ccc3ncnc(Nc4ccc(O)c(Cl)c4)c3c2)cc1)N1CCOCC1 | Plasmodium falciparum | parasite growth, SYBR Green | D6 | blood stage | – | EC50 | 12000 nM
C#CCN1C(=O)C(CC#C)(C(=O)OCC)Oc2ccccc21 (stereo not shown) | Arabidopsis thaliana | – | Col-0, seed germination, dark | 50 µg/mL, 7 days, 22 °C | – | stem length inhibition | 100%
C[C@H](NC(=O)Cc1cc(F)cc(F)c1)C(=O)N[C@@H]1C(=O)N(C)c2ccccc2-c2ccccc21 | dengue virus 2 | viral replication, luciferase reporter virus | Huh-7.5.1 | – | – | EC50 | 31 nM
O=C(c1ccc(-c2ccc3ncnc(Nc4ccc(OCc5cccc(F)c5)c(Cl)c4)c3c2)cc1)N1CCCCC1 | Plasmodium falciparum | parasite growth, SYBR Green | D6 | blood stage | – | EC50 | 250 nM
CC(O)CN.O=C(O)C(Cl)Cl | Xanthium sibiricum | – | – | 15 mg/mL, 21 days, post-emergence, greenhouse | – | herbicidal inhibition | 53%
